Measurements pooled from the literature.
Each line is one published result; not all experiments were run side by side.
Medium: plasma

With O=c1[nH]c(=O)c(Cc2cccc(C(F)(F)F)c2)c([C@H]2CC[C@H](c3ccccc3)CC2)[nH]1 the Cmax was 571 ng/mL (human, fasted; oral, 900 mg single dose, geometric mean).
CS(=O)(=O)Nc1ccc(C(=O)O[C@@H](Cc2c(Cl)c[n+]([O-])cc2Cl)c2ccc(OC(F)F)c(OCC3CC3)c2)cc1OCC1CC1 gave a Cmax of 3.65 ng/mL (human; inhaled, 1200 µg twice daily, day 14, multi-dose dry powder inhaler).
Cc1nc2cccc(OCC(C)(C)C(=O)NC(C)C)c2c(N)c1C(=O)O gave a Cmax of 18.4 ng/mL (male Sprague-Dawley rat; dietary, 30 mg/kg/day, day 7).
Cc1cc(Nc2cc3ncccc3c(N[C@@H]3C[C@H]4CC[C@@H](C3)N4CCC#N)n2)n[nH]1 gave a Cmax of 11.5 ng/mL (beagle dog, female; oral, 10 mg/kg/day, last day of 39 weeks).
The Cmax of O=C1N=C(N2CCOCC2)CN1c1ccc(Cl)cc1 is reported as 17200 ng/mL (beagle dog, both sexes; oral, 30 mg/kg, day 0, tablets, single dose).
The Cmax of CCCC[C@H](NC(C)=O)C(=O)N[C@H]1CCC(=O)NC[C@@H](C(=O)N[C@@H](Cc2c[nH]c3ccccc23)C(N)=O)NC(=O)[C@H](CCCNC(=N)N)NC(=O)[C@@H](Cc2ccccc2)NC(=O)[C@H](Cc2c[nH]cn2)NC1=O is reported as 1260 ng/mL (beagle dog, female; subcutaneous, 40.0 mg/kg daily, day 28).
The Cmax of CNCc1ccc(-c2[nH]c3cc(F)cc4c3c2CCNC4=O)cc1 is reported as 666 ng/mL (human patients; oral, 360 mg twice daily, day 1, arithmetic mean).
With Cn1c(C(F)(F)F)cc(=O)n(-c2cc(Oc3cccnc3OCC(=O)O)c(Cl)cc2F)c1=O the Cmax was 2860 ng/mL (beagle dog, male; oral capsule, 300 mg/kg/day epyrifenacil, week 13, 90-day study).
For CCCOc1ccc([C@H]2CNC(=O)N2c2ccc3[nH]cnc3c2)cc1, the Cmax was 4710 ng/mL (human; oral, 1200 mg, single dose, fed).

Repeated from above:
The Cmax of O=C1N=C(N2CCOCC2)CN1c1ccc(Cl)cc1 is reported as 17200 ng/mL (beagle dog, both sexes; oral, 30 mg/kg, day 0, tablets, single dose).
